Results gathered from unrelated publications.
Protocols differ between the studies behind these lines. “And” joins repeats or separate records; there may be more than shown. ± marks the error that the study gave.
UniProt P51575, sequence (whole entry, unmodified, looked up): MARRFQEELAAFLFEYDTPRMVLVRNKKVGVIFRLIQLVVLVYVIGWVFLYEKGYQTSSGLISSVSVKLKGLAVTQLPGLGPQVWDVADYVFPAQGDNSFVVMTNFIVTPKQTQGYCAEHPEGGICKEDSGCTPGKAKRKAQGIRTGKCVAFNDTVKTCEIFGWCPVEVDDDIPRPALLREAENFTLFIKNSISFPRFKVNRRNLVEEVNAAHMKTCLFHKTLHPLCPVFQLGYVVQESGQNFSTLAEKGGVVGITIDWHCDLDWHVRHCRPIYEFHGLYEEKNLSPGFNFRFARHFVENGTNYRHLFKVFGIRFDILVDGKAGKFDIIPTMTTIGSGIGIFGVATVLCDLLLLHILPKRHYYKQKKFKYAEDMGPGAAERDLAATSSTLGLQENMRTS
UniProt Q16774, sequence (whole entry, unmodified, looked up): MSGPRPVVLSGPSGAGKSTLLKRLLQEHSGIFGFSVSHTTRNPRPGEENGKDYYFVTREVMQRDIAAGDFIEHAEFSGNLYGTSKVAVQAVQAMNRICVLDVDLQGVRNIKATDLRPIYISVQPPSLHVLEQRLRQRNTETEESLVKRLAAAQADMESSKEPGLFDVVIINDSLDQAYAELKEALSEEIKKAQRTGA

Cc1c(C)c2c(c(C)c1O)CCC(C)(COc1ccc(CC3SC(=O)NC3=O)cc1)O2 (centres unmarked) — IC50 (iPSC-derived hepatocytes B3; cell viability; 48 h, differentiation day 23): 46 µM
C[C@H](Nc1ccc2c(c1)OCCn1cc(N3C(=O)OC[C@H]3C(F)F)nc1-2)C(N)=O — IC50 (NCI-H460; growth rate inhibition, CellTiter-Glo; 120 h): 10 µM
Cc1cc2c(F)c(Oc3ncnn4cc(OC[C@@H](C)O)c(C)c34)ccc2[nH]1 — IC50 (HD-MB03; 168 h): inactive
C[C@@H]1CN(C(=O)c2ccc(NC(=O)c3cc(O[C@H](C)c4c(Cl)ccc(F)c4Cl)c(N)nn3)cc2)C[C@H](C)N1 — IC50 (NCI-H3122 (EML4-ALK variant 1); cell viability): 0.0215 µM
COc1cccc2c1C(=O)c1c(O)c3c(c(O)c1C2=O)C[C@@](O)(C(=O)CO)C[C@@H]3O[C@H]1C[C@H](N)[C@H](O)[C@H](C)O1 — IC50 (HD-MB03; cell growth; 168 h, single agent): 0.134 µM
Nc1ncnc2c1ncn2[C@@H]1O[C@H](COP(=O)(O)CP(=O)(O)OP(=O)(O)O)[C@@H](O)[C@H]1O — specific binding (P2X purinoceptor 1 (P2RX1, Homo sapiens, UniProt P51575, E122A); saturation binding; HEK293; 79 nM): 560 CCPM and 820 CCPM and 580 CCPM
CC(=O)C1=C(C)Nc2sc(C(=O)c3ccc(Cl)c(Cl)c3)c(N)c2C1c1cccnc1 (centres unmarked) — IC50 (HMC3; nuclear intensity, high-content imaging; geometric mean): 35.5 µM
COc1ccc(F)cc1C(=O)NCc1ccc(-c2nn([C@@H](C)C(F)(F)F)c(N)c2C(N)=O)cc1 — IC50 (TMD8 BTK C481S; cell proliferation; 72 h): 0.0264 µM
CC(C)C(=O)Nc1ccc([N+](=O)[O-])c(C(F)(F)F)c1 — IC50 (THLE-2 cells, Ad-Null transduced; cell viability; no enzyme control): 31 ± 6.6 µM
COc1cc(Nc2c(C#N)cnc3cc(OCCCN4CCN(C)CC4)c(OC)cc23)c(Cl)cc1Cl — IC50 (HD-MB03; cell growth; 168 h, DMSO): 2.19 µM
Oc1ccc(/C=C/c2cc(O)cc(O)c2)cc1 — inhibition (Nedd8-cullin1 interaction; neddylation, AlphaScreen; 100 µM): 16.4%
CCCCN1C[C@H](O)[C@@H](O)[C@@H](O)[C@H]1CO — IC50 (sample C patient fibroblasts; GlcCer level lowering, LC-MS/MS, measured: GlcCer d18:1/16:0; 216 h): 29.6 µM
CC(=O)c1c(O)c(C)c(O)c2c1OC1=CC(=O)C(C(C)=O)C(=O)C12C (single isomer, unassigned; (+)) — IC50 (hepatocytes, iPSC-derived, W2 line; cell viability; 72 h): 25 µM
Cn1cc(-c2ccc(-c3cncc(Cl)c3N3CCC4(CCNC4=O)CC3)cc2)cn1 — log2 fold change (COLO 205; gene expression, microarray, measured: SLC2A1 (GLUT1) mRNA; concentration not given, 2 h; relative to: untreated cells): 3.47
Nc1ccccc1NC(=O)c1ccc(CNc2nccc(-c3cccnc3)n2)cc1 — IC50 (HD-MB03; cell growth; 168 h, single agent): 0.138 µM
CN(c1ccc(NC(=O)c2ccc(C(=N)N)cc2)cc1OCc1ccc(C(F)(F)F)cc1)S(=O)(=O)C(F)(F)F — IC50 (RAW264.7; cell growth, MTT; 48 h): > 500 µM
Cc1c(C(=O)Nc2ccc(N3C[C@@H](C)O[C@@H](C)C3)nc2)cccc1-c1ccc(OC(F)(F)F)cc1 — IC50 (HD-MB03; 168 h): inactive
C[C@H](N[C@@H](CCc1ccccc1)C(=O)O)C(=O)N1[C@H](C(=O)O)C[C@@H]2CCC[C@@H]21 — inhibition (Nedd8-cullin1 interaction; neddylation, AlphaScreen; 100 µM): 28.8%
Nc1ccn([C@@H]2O[C@H](CO)[C@@H](O)C2(F)F)c(=O)n1 — IC50 (HD-MB03; cell growth; 168 h, DMSO): 0.0278 µM
O=C(O)COCC(=O)O — IC50 (iPSC-derived hepatocytes B3; cell viability; 72 h, differentiation day 23): 7270 µM
CN(c1ccc(NC(=O)c2cccc(C(=N)N)c2)cc1OCc1ccc(C(F)(F)F)cc1)S(=O)(=O)C(F)(F)F — IC50 (RAW264.7; cell growth, MTT; 48 h): > 500 µM
Cc1nc(NC(=O)N2CCC[C@H]2C(N)=O)sc1-c1ccnc(C(C)(C)C(F)(F)F)c1 — IC50 (NCI-H596; growth rate inhibition, CellTiter-Glo; 120 h): 0.204 µM
CCn1ncc2c1-c1cnc(N)c(c1)O[C@H](C)c1cc(F)ccc1-c1nn(C)nc1C2 — IC50 (A-431, EGFR-amplified; cell viability): > 10 µM
Nc1cc(C(F)(F)F)c(-c2nc(N3CCOCC3)nc(N3CCOCC3)n2)cn1 — IC50 (HD-MB03; cell growth; 168 h, DMSO): 0.701 µM
CCN(CCO)CCCC(C)Nc1ccnc2cc(Cl)ccc12 (centres unmarked) — IC50 (human PBMC; IFN-driven gene expression, inhibitor, qRT-PCR, measured: IFI6 mRNA; two donors, with: ssRNA): 2.3 ± 0.9 µM
COc1cnc2cccc(N3CCc4c(cc(Cn5ccnc5C)cc4-c4cn(C)nc4C(F)(F)F)C3=O)c2c1 — EC50 (SCC-9; cell growth, inhibitor; 120 h): 0.114 µM
NC(=O)NO — IC50 (mouse MDSCs differentiated in vitro; M-MDSC frequency, flow cytometry): 84 ± 2.8 µM
CCn1cc(-c2cc(Cn3ccnc3)cc3c2CCN([C@H](c2cc(OC)ccn2)C2CC2)C3=O)c(C(F)(F)F)n1 — EC50 (SW 1116; cell growth, inhibitor; 120 h): 13.9 µM
C[C@@H](Oc1cc(-c2cnn(C3CCNCC3)c2)cnc1N)c1c(Cl)ccc(F)c1Cl — IC50 (Rh3 (alveolar rhabdomyosarcoma); cell growth; 3 days): 0.45 ± 0.14 µM
CC(C)(C)c1nc(-c2cccc(NS(=O)(=O)c3c(F)cccc3F)c2F)c(-c2ccnc(N)n2)s1 — IC50 (SK-MEL-2 (NRAS Q61R); ERK phosphorylation, Western blot; 1 h): 25.1 µM
Cc1c(C(=O)O)ccc2c3n(nc12)[C@@H]1[C@H](C3)N(CC2CC2)[C@@]2(C(=O)Nc3cc(Cl)ccc32)[C@H]1c1cccc(Cl)c1F — IC50 (RKO; cell growth, alamarBlue; unbound, 4.5% of total): 0.00265 µM
Nc1nc2c(ncn2[C@@H]2O[C@H](COP(=O)(O)O)[C@@H](O)[C@H]2O)c(=O)[nH]1 — ΔG (GUK1 (Homo sapiens, UniProt Q16774, D103A); binding, ITC): -5.49 kcal/mol
O=C(Oc1ccc2[nH]c3ccccc3c2c1)c1ccc(O)cc1 — IC50 (rat vascular smooth muscle cells; cell proliferation, MTT; with: PDGF-BB): 4.76 µM
CCCc1nc2c(n1Cc1ccc(-c3ccccc3-c3nnn[nH]3)cc1)C(=O)CCCC2 — IC50 (human skeletal muscle cells; BCKD phosphorylation, AlphaLISA): > 60 µM
COc1cc(N2CCC(N3CCN(C)CC3)CC2)ccc1Nc1ncc(Cl)c(Nc2ccccc2S(=O)(=O)C(C)C)n1 — IC50 (Rh3 (alveolar rhabdomyosarcoma); cell growth; 3 days): 0.17 ± 0.05 µM
O=C(O)CC[C@H](NC(=O)N[C@@H](CCCCNC(=O)[C@H](Cc1ccc2ccccc2c1)NC(=O)CCCCCNC(=O)CN1CCN(CC(=O)O)CCN(CC(=O)O)CCN(CC(=O)O)CC1)C(=O)O)C(=O)O [gallium-68 labelled] — SUVmean (PET/CT; mouse, 22Rv1 xenograft, muscle; intravenous, 3.7 MBq, 8 h): 0.05 ± 0.004 SUV
COc1cc(N2CCC(N3CCN(C)CC3)CC2)ccc1Nc1ncc(Cl)c(Nc2ccccc2P(C)(C)=O)n1 — IC50 (NCI-H3122 (EML4-ALK variant 1); cell viability): 0.0213 µM
CCc1nc(C(N)=O)c(Nc2ccc(N3CCC(N4CCN(C(=O)CCCCCCNc5ccc(S(=O)(=O)NC(=O)c6ccc(N7CCN(CC8=C(c9ccc(Cl)cc9)CC(C)(C)CC8)CC7)cc6Oc6cnc7[nH]ccc7c6)cc5[N+](=O)[O-])CC4)CC3)c(OC)c2)nc1NC1CCOCC1 — IC50 (MOLM-14 FLT3-ITD F691L gilteritinib-resistant; cell viability, alamarBlue; 48 h): > 10 µM
COc1ccc(C(=O)Nc2ccc(NC(=N)N)c(OCc3cc(C)ccc3C)c2)cc1 — IC50 (RAW264.7; cell growth, MTT; 48 h): > 500 µM
Cn1ncnc1[C@H]1c2n[nH]c(=O)c3cc(F)cc(c23)N[C@@H]1c1ccc(F)cc1 — IC50 (HD-MB03; cell growth; 168 h, single agent): 0.0371 µM
CCCCC(=O)N(Cc1ccc(-c2ccccc2-c2nnn[nH]2)cc1)[C@H](C(=O)O)C(C)C — IC50 (human skeletal muscle cells; BCKD phosphorylation, AlphaLISA): > 60 µM

A few entries again:
COc1cc(N2CCC(N3CCN(C)CC3)CC2)ccc1Nc1ncc(Cl)c(Nc2ccccc2S(=O)(=O)C(C)C)n1 — IC50 (Rh3 (alveolar rhabdomyosarcoma); cell growth; 3 days): 0.17 ± 0.05 µM
COc1ccc(F)cc1C(=O)NCc1ccc(-c2nn([C@@H](C)C(F)(F)F)c(N)c2C(N)=O)cc1 — IC50 (TMD8 BTK C481S; cell proliferation; 72 h): 0.0264 µM
CCCc1nc2c(n1Cc1ccc(-c3ccccc3-c3nnn[nH]3)cc1)C(=O)CCCC2 — IC50 (human skeletal muscle cells; BCKD phosphorylation, AlphaLISA): > 60 µM
